Values quoted from earlier work as cited in several papers.
Protocols differ between the studies behind these lines. Numbers after ± are the reported error.

SMILES	target or system	test	system	conditions	how to read	endpoint	result
Cc1sc(-c2ccc(C(F)(F)F)cc2)nc1-c1nn[nH]c1C#N			ZDF rat	2 mg/kg/day, 6 weeks		HbA1c change from baseline	2.96 ± 0.15%
CN1CCN(S(=O)(=O)c2ccc(-c3ccc4ncnc(Nc5ccc(OCc6ccccc6)c(Cl)c5)c4c3)cc2)CC1	Trypanosoma brucei	parasite growth				EC50	610 nM
COc1ccc2c(c1)CN(C(=O)CCN1CCC(Cc3ccccc3)CC1)CC[S+]2[O-] (stereo not drawn)			dog	dose not given	baseline: animals	atrial flutter conversion	80%
CC(C)(C)OC(=O)N1CCN(S(=O)(=O)c2ccc(-c3ccc4ncnc(Nc5ccc(OCc6cccc(F)c6)c(Cl)c5)c4c3)cc2)CC1	Trypanosoma brucei	parasite growth				EC50	960 nM
N#Cc1ccnc(N2C(=O)CC[C@H]2C(=O)N(c2cncc(F)c2)[C@H](C(=O)NC2CC(F)(F)C2)c2ccccc2Cl)c1			relapsed/refractory mIDH1 AML patients	dose not given, trial, interim		overall response rate	42%
CC(C)C(=O)N1CCC(c2ccc(NC(=O)N3Cc4ccncc4C3)cc2)CC1	PC-3					EC50	2 nM
CC(C)=CCC/C(C)=C\CCn1cc(CC(C)(P(=O)(O)O)P(=O)(O)O)nn1	myeloma cells					lowest effective concentration	25 nM
Cc1cc(-c2ccc3ncnc(Nc4ccc(OCc5cccc(F)c5)c(Cl)c4)c3c2)cnc1N1CCOCC1	Trypanosoma brucei	parasite growth				EC50	1000 nM
O=C(c1cccc(Nc2nc3ccccc3n3nnnc23)c1)N1CCc2ccccc2C1	Plasmodium	parasite growth				IC50	3440 nM
CN(CCN)Cc1ccccc1Sc1ccccc1Cl	SMYD2	enzyme activity		100 µM		inhibition	~40%
c1ccc2c(c1)CCNC2c1c[nH]c2ncccc12 (stereo not drawn)	Staphylococcus aureus	efflux pump inhibition	ATCC 25923	50 µM	baseline: untreated cells	relative fluorescence index	-0.22
FC(F)(F)c1ccccc1-c1nc(NCc2cccs2)c2ccccc2n1	PI5P4Kγ	inhibitor		10 µM	baseline: control	remaining activity	8.8%
c1ccc2c(c1)CCNC2c1c[nH]c2cccnc12 (stereo not drawn)	Escherichia coli	efflux pump inhibition	AG100 AcrAB-TolC expressing	50 µM	baseline: untreated cells	relative fluorescence index	0.37
COc1cc(Nc2ncnc3ccc(-c4ccc(S(=O)(=O)N5CCOCC5)cc4)cc23)ccc1OCc1cccc(F)c1	Trypanosoma brucei	parasite growth				EC50	1900 nM
COc1cc2c(cc1OC)C(c1c[nH]c3ccccc13)NCC2 (stereo not drawn)	Staphylococcus aureus	efflux pump inhibition	ATCC 25923	50 µM	baseline: untreated cells	relative fluorescence index	0.17
CCOC(=O)C1(C)C=C(C(=O)OC)C(=O)CC1 (stereo not drawn)		GSH adduct formation	PBS	pH 7.4, 37 °C, added: GSH 10 mM		rate constant	0.0007 min⁻¹
O=S(=O)(c1ccc(-c2ccc3ncnc(Nc4ccc(O)c(Cl)c4)c3c2)cc1)N1CCOCC1	Trypanosoma brucei	parasite growth				EC50	1100 nM
c1ccc2c(c1)CCCNC2c1c[nH]c2ccccc12 (stereo not drawn)	Escherichia coli	efflux pump inhibition	AG100 AcrAB-TolC expressing	50 µM	baseline: untreated cells	relative fluorescence index	0.36
CN(C)S(=O)(=O)c1ccccc1-c1ccc2ncnc(Nc3ccc(OCc4cccc(F)c4)c(Cl)c3)c2c1	Trypanosoma brucei	parasite growth				EC50	1000 nM
COc1ccc(Nc2nc(Nc3ccc(OCC[18F])cc3)ncc2Br)cc1			S180 tumour-bearing mice, brain	intravenous, 30 min		tissue uptake	1.19 ± 0.18 %ID/g
c1ccc2c(c1)CCCNC2c1c[nH]c2ncccc12 (stereo not drawn)	Staphylococcus aureus	efflux pump inhibition	ATCC 25923	50 µM	baseline: untreated cells	relative fluorescence index	-0.16
Fc1cccc(COc2ccc(Nc3ncnc4ccc(-c5cccc(-n6cccn6)c5)cc34)cc2Cl)c1	Trypanosoma brucei	parasite growth				EC50	7500 nM
c1cnc2[nH]cc(C3NCCc4sccc43)c2c1 (stereo not drawn)	Staphylococcus aureus	efflux pump inhibition	ATCC 25923	50 µM	baseline: untreated cells	relative fluorescence index	-0.1
CS(=O)(=O)Nc1ccc(-c2cncc(-c3cccc4cc[nH]c34)c2)cc1	PI5P4Kγ			1 µM		remaining activity	0%

Some of these lines once more:
SMILES	target or system	test	system	conditions	how to read	endpoint	result
FC(F)(F)c1ccccc1-c1nc(NCc2cccs2)c2ccccc2n1	PI5P4Kγ	inhibitor		10 µM	baseline: control	remaining activity	8.8%
c1cnc2[nH]cc(C3NCCc4sccc43)c2c1 (stereo not drawn)	Staphylococcus aureus	efflux pump inhibition	ATCC 25923	50 µM	baseline: untreated cells	relative fluorescence index	-0.1
COc1ccc(Nc2nc(Nc3ccc(OCC[18F])cc3)ncc2Br)cc1			S180 tumour-bearing mice, brain	intravenous, 30 min		tissue uptake	1.19 ± 0.18 %ID/g
